Measured values of several laboratories.
Lines come from different studies, so protocols differ.
TMPRSS2: Transmembrane protease serine 2 (TMPRSS2, Homo sapiens, UniProt O15393)
Chain of UniProt O15393 (whole entry, looked up): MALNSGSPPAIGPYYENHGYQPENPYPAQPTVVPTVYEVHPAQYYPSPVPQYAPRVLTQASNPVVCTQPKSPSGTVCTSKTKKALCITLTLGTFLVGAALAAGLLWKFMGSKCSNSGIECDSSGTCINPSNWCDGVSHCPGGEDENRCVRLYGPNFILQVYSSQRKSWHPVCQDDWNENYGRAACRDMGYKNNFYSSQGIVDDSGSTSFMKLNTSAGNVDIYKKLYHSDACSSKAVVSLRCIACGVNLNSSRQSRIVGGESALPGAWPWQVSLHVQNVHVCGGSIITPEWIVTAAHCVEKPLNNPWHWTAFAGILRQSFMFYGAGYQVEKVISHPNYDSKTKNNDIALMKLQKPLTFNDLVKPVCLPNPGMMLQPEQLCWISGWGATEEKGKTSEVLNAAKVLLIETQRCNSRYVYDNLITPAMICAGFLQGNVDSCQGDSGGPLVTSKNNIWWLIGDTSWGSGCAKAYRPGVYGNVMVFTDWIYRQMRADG
Chain of UniProt Q8NI60 (whole entry, looked up): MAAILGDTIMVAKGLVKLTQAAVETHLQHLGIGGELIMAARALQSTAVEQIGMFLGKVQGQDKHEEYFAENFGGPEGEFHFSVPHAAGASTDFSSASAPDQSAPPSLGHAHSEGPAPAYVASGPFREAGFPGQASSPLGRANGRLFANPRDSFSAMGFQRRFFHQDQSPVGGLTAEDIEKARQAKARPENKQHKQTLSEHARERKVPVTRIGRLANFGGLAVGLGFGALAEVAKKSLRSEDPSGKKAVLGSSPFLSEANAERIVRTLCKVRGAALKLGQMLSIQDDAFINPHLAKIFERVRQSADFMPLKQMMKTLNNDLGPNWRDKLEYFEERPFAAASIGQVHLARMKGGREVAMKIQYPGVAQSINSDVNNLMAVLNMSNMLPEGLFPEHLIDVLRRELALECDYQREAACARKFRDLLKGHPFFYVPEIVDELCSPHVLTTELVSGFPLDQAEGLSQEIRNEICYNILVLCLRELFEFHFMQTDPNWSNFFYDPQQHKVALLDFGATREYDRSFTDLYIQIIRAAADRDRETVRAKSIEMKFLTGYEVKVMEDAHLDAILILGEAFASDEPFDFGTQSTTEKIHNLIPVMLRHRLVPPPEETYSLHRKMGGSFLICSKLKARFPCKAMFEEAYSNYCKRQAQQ
Chain of UniProt P53341 (whole entry, looked up): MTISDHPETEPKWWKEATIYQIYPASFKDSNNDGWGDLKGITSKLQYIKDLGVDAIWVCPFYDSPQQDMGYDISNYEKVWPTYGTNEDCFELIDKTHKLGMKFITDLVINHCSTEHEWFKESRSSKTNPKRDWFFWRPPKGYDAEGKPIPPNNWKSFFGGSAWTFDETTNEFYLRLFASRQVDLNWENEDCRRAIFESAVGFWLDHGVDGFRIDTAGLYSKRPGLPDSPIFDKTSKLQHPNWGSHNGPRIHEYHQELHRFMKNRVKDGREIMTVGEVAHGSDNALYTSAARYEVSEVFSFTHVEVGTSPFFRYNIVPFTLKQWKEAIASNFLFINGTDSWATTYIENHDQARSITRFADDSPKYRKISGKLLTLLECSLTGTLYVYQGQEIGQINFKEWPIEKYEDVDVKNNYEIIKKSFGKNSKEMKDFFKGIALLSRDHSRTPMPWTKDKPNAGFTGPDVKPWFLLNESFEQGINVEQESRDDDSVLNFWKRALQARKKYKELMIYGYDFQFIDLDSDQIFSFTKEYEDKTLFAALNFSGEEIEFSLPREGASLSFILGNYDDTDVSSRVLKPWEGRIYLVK
Chain of UniProt Q09470 (whole entry, looked up): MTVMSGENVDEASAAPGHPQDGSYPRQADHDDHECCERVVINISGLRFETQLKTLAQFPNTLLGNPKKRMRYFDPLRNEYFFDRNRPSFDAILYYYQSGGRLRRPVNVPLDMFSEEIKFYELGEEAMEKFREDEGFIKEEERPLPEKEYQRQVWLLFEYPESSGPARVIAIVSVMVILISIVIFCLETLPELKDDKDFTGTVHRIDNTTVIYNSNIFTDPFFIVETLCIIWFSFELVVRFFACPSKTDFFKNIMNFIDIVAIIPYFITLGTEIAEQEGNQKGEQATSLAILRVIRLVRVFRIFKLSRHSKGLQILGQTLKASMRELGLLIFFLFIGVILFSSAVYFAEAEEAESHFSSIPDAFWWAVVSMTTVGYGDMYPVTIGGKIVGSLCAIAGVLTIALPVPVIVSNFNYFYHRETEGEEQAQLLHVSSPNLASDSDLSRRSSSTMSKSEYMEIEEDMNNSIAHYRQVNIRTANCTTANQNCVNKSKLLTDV
Chain of UniProt P41144 (whole entry, looked up): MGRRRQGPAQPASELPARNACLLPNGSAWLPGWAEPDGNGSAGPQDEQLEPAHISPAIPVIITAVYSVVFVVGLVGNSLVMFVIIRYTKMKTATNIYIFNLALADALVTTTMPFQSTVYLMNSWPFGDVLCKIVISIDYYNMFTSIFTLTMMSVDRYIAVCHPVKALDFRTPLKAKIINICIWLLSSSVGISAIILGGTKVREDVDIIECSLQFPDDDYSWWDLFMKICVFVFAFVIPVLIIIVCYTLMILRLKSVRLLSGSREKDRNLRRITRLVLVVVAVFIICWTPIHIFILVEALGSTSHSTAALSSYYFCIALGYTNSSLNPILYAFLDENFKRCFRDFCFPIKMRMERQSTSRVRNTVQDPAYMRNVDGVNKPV
Chain of UniProt Q9H422 (whole entry, looked up): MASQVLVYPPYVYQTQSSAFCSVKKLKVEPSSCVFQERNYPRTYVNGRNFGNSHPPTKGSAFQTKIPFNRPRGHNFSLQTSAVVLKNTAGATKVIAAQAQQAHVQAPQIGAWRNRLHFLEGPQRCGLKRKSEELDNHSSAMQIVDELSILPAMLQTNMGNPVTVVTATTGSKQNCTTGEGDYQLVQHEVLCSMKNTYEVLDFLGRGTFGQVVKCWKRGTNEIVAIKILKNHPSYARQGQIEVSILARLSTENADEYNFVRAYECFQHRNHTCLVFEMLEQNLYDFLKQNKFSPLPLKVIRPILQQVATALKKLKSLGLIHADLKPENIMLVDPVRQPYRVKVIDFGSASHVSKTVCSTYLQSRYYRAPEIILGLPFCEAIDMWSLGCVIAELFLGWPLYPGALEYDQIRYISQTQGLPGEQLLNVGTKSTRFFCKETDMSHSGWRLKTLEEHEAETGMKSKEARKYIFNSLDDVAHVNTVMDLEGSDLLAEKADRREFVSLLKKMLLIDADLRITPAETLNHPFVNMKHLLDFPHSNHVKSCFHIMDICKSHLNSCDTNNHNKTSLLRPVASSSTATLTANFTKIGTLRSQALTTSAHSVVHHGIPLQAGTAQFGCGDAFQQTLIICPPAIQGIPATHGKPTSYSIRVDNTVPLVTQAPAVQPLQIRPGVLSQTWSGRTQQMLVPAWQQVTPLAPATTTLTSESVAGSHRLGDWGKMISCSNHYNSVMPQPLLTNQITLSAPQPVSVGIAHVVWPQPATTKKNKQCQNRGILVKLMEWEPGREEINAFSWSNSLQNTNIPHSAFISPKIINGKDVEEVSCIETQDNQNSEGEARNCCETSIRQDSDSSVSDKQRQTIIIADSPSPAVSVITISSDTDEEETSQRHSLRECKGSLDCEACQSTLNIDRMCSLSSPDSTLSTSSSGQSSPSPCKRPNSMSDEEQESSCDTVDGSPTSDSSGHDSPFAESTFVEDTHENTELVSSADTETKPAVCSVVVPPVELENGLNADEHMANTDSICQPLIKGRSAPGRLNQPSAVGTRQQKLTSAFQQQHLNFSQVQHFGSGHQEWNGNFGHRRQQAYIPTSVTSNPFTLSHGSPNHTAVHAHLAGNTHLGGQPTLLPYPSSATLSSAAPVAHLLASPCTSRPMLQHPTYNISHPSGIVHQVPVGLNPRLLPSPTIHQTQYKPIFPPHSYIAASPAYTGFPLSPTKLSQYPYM

The remaining binding of `COc1ncccc1-c1cnn2ccc(N3CCN(C(=O)OC(C)C)CC3)nc12` is reported as 47% (HIPK3 (Homo sapiens, UniProt Q9H422); binding, competition with immobilised ligand; 1 µM).
For `N=C(N)NCCC[C@H](NC(=O)[C@H](Cc1ccccc1)NC(=O)[C@H](CCC(N)=O)NC(=O)CCc1ccccc1)C(=O)c1nc2ccccc2s1`, “activity vs control” read 87% (TMPRSS2; enzyme activity, inhibitor; 1 nM).
`C#Cc1n[nH]c2c(-c3cn([C@@H](C)c4ccccn4)c(=O)[nH]c3=O)cc(F)cc12` gave an inhibition of 3.6% (Cyclin-dependent kinase 2, with cyclin A (CDK2, Homo sapiens, UniProt P24941); enzyme activity, inhibitor; 0.1 µM).
Under “activity vs control”, `CC(=O)N[C@@H](CCC(N)=O)C(=O)N[C@@H](Cc1ccccc1)C(=O)N[C@@H](CCCNC(=N)N)C(=O)c1nccn1C` is recorded as 100% (TMPRSS2; enzyme activity, inhibitor; 1 nM).
The remaining binding of `[2H]c1c([2H])c([C@]2([2H])CCCN2C(=O)C(C)(C)Oc2ccc3cn[nH]c3c2)c([2H])c([2H])c1C([2H])([2H])[2H]` is reported as 82% (COQ8A (Homo sapiens, UniProt Q8NI60); binding, competition with immobilised ligand; 1 µM).
Under “activity vs control”, `CC[C@H](C)[C@H](N)C(=O)N[C@@H](CCCNC(=N)N)C(=O)N[C@@H](C)C(=O)N[C@H](CCCNC(=N)N)C(=O)c1nc2ccccc2s1` is recorded as 101% (TMPRSS2; enzyme activity, inhibitor; 1 nM).
`Nc1ncc(-c2nc(N3CCOCC3)nc(N3CCOCC3)n2)c(C(F)F)n1` has a remaining binding of 68% (Tyrosine-protein kinase ABL1, phosphorylated (ABL1, Homo sapiens, UniProt P00519, M351T); binding, competition with immobilised ligand; 10 µM).
For `N=C(N)NCCC[C@H](NC(=O)OCc1ccccc1)C(=O)N[C@@H](CCC(N)=O)C(=O)N[C@@H](Cc1ccccc1)C(=O)N[C@H](CCCNC(=N)N)C(=O)c1nccs1`, “activity vs control” read 24% (TMPRSS2; enzyme activity, inhibitor; 1 nM).
`Cc1nn(C)cc1-c1nc2c(N3CCN(Cc4ccc(Cl)cc4)CC3)c(Cl)cnc2[nH]1` has a remaining binding of 76% (MET (Homo sapiens, UniProt P08581, Y1235D); binding, competition with immobilised ligand; 1 µM).
The inhibition of `Nc1ccncc1` is reported as 510% (KCNA1 (Homo sapiens, UniProt Q09470); ion current, inhibitor, patch clamp; 3 µM).
`CCc1ccc(N2C(=O)/C(=C3/C(=O)N(C)c4ccc(Cl)cc43)NC2=S)cc1` gave an inhibition of 42.3% (MAL12 (Saccharomyces cerevisiae S288c, UniProt P53341); enzyme activity, inhibitor, absorbance; 100 µM).
For `OC[C@H]1CNCCN1C[C@@H]1CCCN1C[C@H](CC1CCCCC1)N1CCN(CCc2ccc(Cl)c(Cl)c2)[C@H](Cc2ccc(O)cc2)C1`, the remaining binding was 110% (OPRK1 (Cavia porcellus, UniProt P41144); ligand displacement, radioligand; 0.5 µM, pH 7.5).

A few entries again:
For `N=C(N)NCCC[C@H](NC(=O)OCc1ccccc1)C(=O)N[C@@H](CCC(N)=O)C(=O)N[C@@H](Cc1ccccc1)C(=O)N[C@H](CCCNC(=N)N)C(=O)c1nccs1`, “activity vs control” read 24% (TMPRSS2; enzyme activity, inhibitor; 1 nM).
